Measurements of several laboratories.
Lines come from different studies, so protocols differ.
UniProt O75116, sequence (whole entry, looked up): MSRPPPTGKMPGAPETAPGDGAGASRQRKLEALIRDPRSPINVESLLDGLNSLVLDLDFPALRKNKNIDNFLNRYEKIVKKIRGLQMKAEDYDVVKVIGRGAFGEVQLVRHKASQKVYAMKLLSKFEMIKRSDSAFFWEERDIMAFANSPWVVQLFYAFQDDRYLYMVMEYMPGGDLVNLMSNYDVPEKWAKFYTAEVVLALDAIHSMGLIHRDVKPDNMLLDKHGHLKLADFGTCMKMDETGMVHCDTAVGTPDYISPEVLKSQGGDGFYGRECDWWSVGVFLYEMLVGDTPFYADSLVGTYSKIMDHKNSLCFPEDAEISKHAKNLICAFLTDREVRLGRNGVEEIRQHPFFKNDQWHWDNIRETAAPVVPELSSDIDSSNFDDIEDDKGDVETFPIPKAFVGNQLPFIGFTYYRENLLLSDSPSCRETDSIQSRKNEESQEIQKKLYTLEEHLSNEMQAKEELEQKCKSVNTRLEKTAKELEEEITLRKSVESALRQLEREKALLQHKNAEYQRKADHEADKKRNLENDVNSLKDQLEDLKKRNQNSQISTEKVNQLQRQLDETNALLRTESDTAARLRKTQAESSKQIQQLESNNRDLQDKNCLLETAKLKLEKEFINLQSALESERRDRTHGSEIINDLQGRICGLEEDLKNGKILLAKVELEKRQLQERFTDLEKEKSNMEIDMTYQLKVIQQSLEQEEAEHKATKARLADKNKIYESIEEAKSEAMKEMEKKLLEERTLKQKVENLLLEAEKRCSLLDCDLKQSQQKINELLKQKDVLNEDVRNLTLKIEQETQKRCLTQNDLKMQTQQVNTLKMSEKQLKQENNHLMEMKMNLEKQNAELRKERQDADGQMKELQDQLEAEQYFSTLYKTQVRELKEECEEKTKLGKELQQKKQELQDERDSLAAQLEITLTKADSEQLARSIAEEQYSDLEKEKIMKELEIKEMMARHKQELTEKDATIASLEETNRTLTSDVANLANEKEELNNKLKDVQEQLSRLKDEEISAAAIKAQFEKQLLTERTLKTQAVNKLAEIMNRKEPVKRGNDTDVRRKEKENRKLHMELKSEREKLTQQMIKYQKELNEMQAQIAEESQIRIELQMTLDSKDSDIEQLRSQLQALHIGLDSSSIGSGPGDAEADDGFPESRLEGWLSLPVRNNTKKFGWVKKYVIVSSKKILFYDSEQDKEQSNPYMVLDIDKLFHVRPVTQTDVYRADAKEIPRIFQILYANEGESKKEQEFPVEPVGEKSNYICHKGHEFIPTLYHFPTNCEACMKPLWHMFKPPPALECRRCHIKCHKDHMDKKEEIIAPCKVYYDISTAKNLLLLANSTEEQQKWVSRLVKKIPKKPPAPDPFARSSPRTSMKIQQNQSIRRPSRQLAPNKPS

SMILES = C[C@H]1CN(c2n[nH]c3nc(N[C@H]4CC[C@H](NS(=O)(=O)CCC(F)(F)F)CC4)ncc23)CCO1; tested on = ROCK2 (Homo sapiens, UniProt O75116); test = inhibitor, Kinobeads competition profiling; setting = 0.16 µM; how to read = reference: vehicle; measurement = relative abundance; value = 1.07
SMILES = N=C(N)c1ccc(OCc2ccccc2COc2ccc(C(=N)N)cc2)cc1; tested on = Escherichia coli; system = mcr-1; setting = 20 h, in combination, checkerboard, added: rifampicin; measurement = MIC; value = 25 µg/mL
SMILES = CC1(C)SC2C(NC(=O)C(NC(=O)C3=C(O)C(Cc4ccsc4)NC3=O)c3ccccc3)C(=O)N2C1C(=O)O (stereo not shown); tested on = Escherichia coli; test = broth microdilution; system = Keio mutant JW5086-3; setting = 18 h, ferrienterobactin permease gene; measurement = MIC; value = 25 µg/mL
SMILES = N=C(N)NCCC[C@H](NC(=O)[C@H](Cc1c[nH]c2ccccc12)NC(=O)[C@H](CCCNC(=N)N)NC(=O)[C@H](Cc1c[nH]c2ccccc12)NC(=O)[C@H](Cc1c[nH]c2ccccc12)NC(=O)[C@H](Cc1c[nH]c2ccccc12)NC(=O)[C@H](CCCNC(=N)N)NC(=O)[C@H](Cc1c[nH]c2ccccc12)NC(=O)[C@@H](N)CCCNC(=N)N)C(=O)N[C@@H](Cc1c[nH]c2ccccc12)C(N)=O; tested on = Candida albicans; test = broth microdilution; system = 56452, RPMI 1640-MOPS; setting = 48 h, 30 °C; measurement = MIC; value = 8 µM
SMILES = CC[C@H](C)[C@H](NC(=O)[C@H](CCCCN)NC(=O)[C@@H](NC(=O)[C@H](Cc1ccc(O)cc1)NC(=O)[C@H](CCCCN)NC(=O)[C@H](CCCCN)NC(=O)CNC(=O)[C@H](CCCCN)NC(=O)[C@@H](NC(=O)[C@H](C)NC(=O)[C@H](CC(C)C)NC(=O)[C@H](Cc1c[nH]c2ccccc12)NC(=O)CNC(=O)[C@@H](NC(=O)[C@H](Cc1ccccc1)NC(=O)[C@H](CCCCN)NC(=O)[C@H](CC(C)C)NC(=O)[C@H](Cc1ccccc1)NC(=O)[C@H](C)NC(=O)CNC(=O)[C@@H](N)CCSC)C(C)C)[C@@H](C)O)C(C)C)C(=O)N[C@@H](C)C(=O)N[C@@H](Cc1c[nH]c2ccccc12)C(=O)N[C@@H](CC(=O)O)C(=O)N[C@@H](Cc1c[nH]cn1)C(=O)N[C@@H](CCCCN)C(=O)NCC(=O)N[C@H](C(=O)N[C@H](C(=O)N[C@@H](CCSC)C(=O)N[C@@H](CCCCN)C(=O)N[C@@H](Cc1c[nH]c2ccccc12)C(=O)N[C@@H](CC(C)C)C(=O)N[C@@H](CC(N)=O)C(=O)N[C@@H](C)C(=O)NCC(=O)N[C@@H](CCC(N)=O)C(=O)N[C@H](C(=O)N[C@@H](Cc1ccccc1)C(=O)N[C@H](C(=O)N[C@@H](Cc1c[nH]c2ccccc12)C(=O)N[C@H](C(=O)N[C@@H](Cc1ccc(O)cc1)C(=O)N[C@@H](CCC(=O)O)C(=O)N[C@@H](CCC(N)=O)C(=O)N[C@H](C(=O)N[C@@H](CCCCN)C(=O)N[C@@H](CCCCN)C(=O)N[C@@H](CC(C)C)C(=O)N[C@@H](Cc1c[nH]c2ccccc12)C(=O)N[C@H](C(=O)O)[C@@H](C)O)[C@@H](C)CC)C(C)C)[C@@H](C)O)[C@@H](C)O)[C@@H](C)CC)[C@@H](C)O; tested on = Listeria seeligeri; test = broth microdilution; system = CECT 917; setting = 37 °C; measurement = MIC; value = 2.6 µg/mL
SMILES = CCCCCCCCCCCCCCNC(=O)CP(=O)(O)O; tested on = Streptococcus pneumoniae; measurement = MIC; value = 200 µg/mL
SMILES = CC1(C)SC2C(NC(=O)C(NC(=O)C3=C(O)C(Cc4ccc(O)cc4)NC3=O)c3ccccc3)C(=O)N2C1C(=O)O (stereo not shown); tested on = Escherichia coli; test = broth microdilution; system = isolate IU, CTX-M-14, TEM-1; setting = added: clavulanic acid 6 µg/mL; measurement = MIC; value = > 200 µg/mL
SMILES = C=CCCCCCCCCC(=O)C(F)(F)P(=O)(O)O; tested on = Streptococcus pneumoniae; measurement = MIC; value = > 200 µg/mL
SMILES = N=C(N)c1ccc(OCCC(CCOc2ccc(C(=N)N)cc2)c2ccccc2)cc1 (stereo not shown); tested on = Escherichia coli; system = BW25113 mcr-1; setting = compound alone; measurement = MIC; value = > 200 µg/mL
SMILES = CCCCCCCCCCCCCCCC(=O)NS(=O)(=O)OCCCC; tested on = Streptococcus pneumoniae; measurement = MIC; value = 25 µg/mL
SMILES = OCCN1CCN(CC/C=C2/c3ccccc3Sc3ccc(C(F)(F)F)cc32)CC1; tested on = Plasmodium falciparum; system = D10; measurement = IC50; value = 7.94 µM
SMILES = CC(C)[C@H](NC(=O)[C@H](CCCNC(=N)N)NC(=O)[C@H](Cc1c[nH]c2ccccc12)NC(=O)[C@H](CCCNC(=N)N)NC(=O)[C@H](Cc1c[nH]c2ccccc12)NC(=O)[C@H](Cc1c[nH]c2ccccc12)NC(=O)[C@H](Cc1c[nH]c2ccccc12)NC(=O)[C@H](CCCNC(=N)N)NC(=O)[C@H](Cc1c[nH]c2ccccc12)NC(=O)[C@H](CCCNC(=N)N)NC(=O)CN)C(N)=O; tested on = Candida albicans; test = broth microdilution; system = CGMCC 2.209, RPMI 1640-MOPS; setting = 48 h, 30 °C, added: ZnCl2 8 µM; measurement = MIC; value = 8 µM
SMILES = CC(C)(C)Oc1ccc(CC2NC(=O)C(C(=O)NC(C(=O)NC3C(=O)N4C3SC(C)(C)C4C(=O)O)c3ccccc3)=C2O)cc1 (stereo not shown); tested on = Escherichia coli; test = broth microdilution; system = Keio mutant JW0146-2; setting = 18 h, ferric hydroxamate uptake gene; measurement = MIC; value = 25 µg/mL
SMILES = CNCCCN1c2ccccc2CCc2ccccc21; tested on = Plasmodium falciparum; system = HB3; measurement = IC50; value = 12.6 µM
SMILES = CC1(C)SC2C(NC(=O)C(NC(=O)C3=C(O)C(Cc4ccco4)NC3=O)c3ccccc3)C(=O)N2C1C(=O)O (stereo not shown); tested on = Escherichia coli; test = broth microdilution; system = JW0790-2 fiu deletion mutant; setting = ferric iron uptake gene; measurement = MIC; value = 6.25 µg/mL
SMILES = N=C(N)NCCC[C@H](NC(=O)[C@H](Cc1c[nH]c2ccccc12)NC(=O)[C@H](CCCNC(=N)N)NC(=O)[C@H](Cc1c[nH]c2ccccc12)NC(=O)[C@H](Cc1c[nH]c2ccccc12)NC(=O)[C@H](Cc1c[nH]c2ccccc12)NC(=O)[C@H](CCCNC(=N)N)NC(=O)[C@H](Cc1c[nH]c2ccccc12)NC(=O)[C@@H](N)CCCNC(=N)N)C(N)=O; tested on = Candida albicans; test = broth microdilution; system = 14936, RPMI 1640-MOPS; setting = 48 h, 30 °C; measurement = MIC; value = 8 µM
SMILES = Cc1ccccc1C(=O)NN=Cc1ccc(O)c(Br)c1; tested on = Cryptococcus neoformans; setting = compound alone, added: amphotericin; measurement = MIC; value = 1 µg/mL
SMILES = CCN1CCN(C(=O)N[C@@H](C(=O)N[C@@H]2C(=O)N3[C@@H]2SC(C)(C)[C@@H]3C(=O)O)c2ccccc2)C(=O)C1=O; tested on = Escherichia coli; test = broth microdilution; system = Keio mutant JW5086-3; setting = 18 h, ferrienterobactin permease gene; measurement = MIC; value = 3.12 µg/mL
SMILES = C[C@H](NC(=O)[C@H](CCCNC(=N)N)NC(=O)[C@H](Cc1c[nH]c2ccccc12)NC(=O)[C@H](CCCNC(=N)N)NC(=O)[C@H](Cc1c[nH]c2ccccc12)NC(=O)[C@H](Cc1c[nH]c2ccccc12)NC(=O)[C@H](Cc1c[nH]c2ccccc12)NC(=O)[C@H](CCCNC(=N)N)NC(=O)[C@H](Cc1c[nH]c2ccccc12)NC(=O)[C@@H](N)CCCNC(=N)N)C(N)=O; tested on = Candida albicans; test = broth microdilution; system = CGMCC 2.209, RPMI 1640-MOPS; setting = 48 h, 30 °C, added: CaCl2 2 mM; measurement = MIC; value = 32 µM
SMILES = CC[C@H](C)[C@H](N)C(=O)N[C@@H](CCCNC(=N)N)C(=O)N[C@H](C(=O)N[C@@H](Cc1c[nH]c2ccccc12)C(=O)N[C@@H](Cc1c[nH]c2ccccc12)C(=O)N[C@@H](CCCCN)C(=O)N[C@H](C(=O)N[C@H](C(=O)N[C@@H](CCCNC(=N)N)C(=O)N[C@@H](CCCCN)C(=O)N[C@@H](Cc1c[nH]c2ccccc12)C(=O)N[C@@H](CCCCN)C(=O)N[C@@H](C)C(=O)N[C@H](C(=O)N[C@@H](Cc1c[nH]c2ccccc12)C(=O)N[C@@H](Cc1c[nH]cn1)C(N)=O)[C@@H](C)CC)C(C)C)[C@@H](C)CC)C(C)C; tested on = Salmonella typhimurium; test = broth dilution; system = SL1344; measurement = MIC; value = 50 µM
SMILES = CC1(C)SC2C(NC(=O)C(NC(=O)C3=C(O)C(Cc4ccc([N+](=O)[O-])cc4)NC3=O)c3ccccc3)C(=O)N2C1C(=O)O (stereo not shown); tested on = Escherichia coli; test = broth microdilution; system = Keio mutant JW2142-1; measurement = MIC; value = 50 µg/mL
SMILES = CC(=O)N1CCN(c2ccc(OCC3COC(Cn4ccnc4)(c4ccc(Cl)cc4Cl)O3)cc2)CC1 (stereo not shown); tested on = Candida albicans; test = broth microdilution; system = 14936, RPMI 1640-MOPS; setting = 48 h, 30 °C; measurement = MIC; value = > 64 µM

Repeated from above:
SMILES = CC1(C)SC2C(NC(=O)C(NC(=O)C3=C(O)C(Cc4ccc(O)cc4)NC3=O)c3ccccc3)C(=O)N2C1C(=O)O (stereo not shown); tested on = Escherichia coli; test = broth microdilution; system = isolate IU, CTX-M-14, TEM-1; setting = added: clavulanic acid 6 µg/mL; measurement = MIC; value = > 200 µg/mL
SMILES = N=C(N)c1ccc(OCc2ccccc2COc2ccc(C(=N)N)cc2)cc1; tested on = Escherichia coli; system = mcr-1; setting = 20 h, in combination, checkerboard, added: rifampicin; measurement = MIC; value = 25 µg/mL
